Measured values pooled from the literature.
“And” joins repeats or separate records; there may be more than shown. ± gives the spread as reported.

NC(=S)N/N=C/c1ccc(OCc2cccc(F)c2)cc1 — glutathione peroxidase activity (OD450) (IMR-32; item: GPX3; 300 µg/mL, 24 h; higher = more activity): 0.245 a.u.
O=C(C[Se]C(=O)c1ccccc1)Nc1cccc(C(F)(F)F)c1 — mean growth percent (NCI60 CNS subpanel; cell growth; 10 µM, 48 h, one-dose): -83.5%
CC(C)C[C@H](NC(=O)[C@H](CCC(=O)O)NC(=O)[C@@H](N)Cc1ccccc1)C(=O)N[C@@H](CCC(=O)O)C(=O)N[C@@H](CCCNC(=N)N)C(=O)N[C@@H](CCCNC(=N)N)C(=O)N[C@@H](Cc1ccccc1)C(=O)N[C@@H](CCCCN)C(=O)N[C@@H](CCC(N)=O)C(=O)N[C@@H](CCC(N)=O)C(=O)O — migration (HCT-116; transwell; concentration not given): 113% and 98.6%
O=C1NC2(CC2)COc2ncc(F)cc2[C@H]2COCCN2c2ccn3ncc1c3n2 — organ-to-body weight ratio (Sprague-Dawley rat, female, adrenals; oral, 2.5 mg/kg/day, 4 weeks dosing, end of recovery): 0.022 ± 0.002%
CC(C)Cc1ccc(C(C)C(=O)[Se]CC(=O)Nc2cccc(C(F)(F)F)c2)cc1 (stereo not shown) — CC50 (NCI60 colon subpanel; NCI60 five-dose screen): 25.4 µM
CC[C@H](C)[C@H](NC(=O)[C@H](C)NC(=O)CNC(=O)[C@H](Cc1ccccc1)NC(=O)[C@H](CC(N)=O)NC(=O)[C@H](CC(N)=O)NC(=O)[C@H](CO)NC(=O)[C@H](CO)NC(=O)[C@H](Cc1c[nH]cn1)NC(=O)[C@@H](NC(=O)[C@H](CC(C)C)NC(=O)[C@H](Cc1ccccc1)NC(=O)[C@H](CC(N)=O)NC(=O)[C@H](C)NC(=O)[C@H](CC(C)C)NC(=O)[C@H](CCCNC(=N)N)NC(=O)[C@H](CCC(N)=O)NC(=O)[C@@H](NC(=O)[C@H](C)NC(=O)[C@@H]1CSSC[C@H](NC(=O)[C@@H](N)CCCCN)C(=O)N[C@@H](CC(N)=O)C(=O)N[C@@H]([C@@H](C)O)C(=O)N[C@@H](C)C(=O)N[C@@H]([C@@H](C)O)C(=O)N1)[C@@H](C)O)C(C)C)C(=O)N[C@@H](CC(C)C)C(=O)N[C@@H](CO)C(=O)N[C@@H](CO)C(=O)N[C@H](C(=O)N[C@@H](CC(N)=O)C(=O)N[C@H](C(=O)NCC(=O)N[C@@H](CO)C(=O)N[C@@H](CC(N)=O)C(=O)N[C@H](C(=O)N[C@@H](Cc1ccc(O)cc1)C(N)=O)[C@@H](C)O)C(C)C)[C@@H](C)O — Pearson colocalization coefficient (RIN-m5F; colocalization microscopy, item: mitochondrial marker; 10 µM, 24 h): < 0.3
CC1CCC2C(C)C(OC(=O)CCC(=O)N3CCC(Nc4ccc(S(=O)(=O)NC(=O)c5ccc(N6CCN(CC7=C(c8ccc(Cl)cc8)CC(C)(C)CC7)CC6)cc5Oc5cnc6[nH]ccc6c5)cc4[N+](=O)[O-])CC3)OC3OC4(C)CCC1C32OO4 (stereo not shown) — necrotic cells (THP-1; annexin V/PI flow cytometry, item: annexin V-/PI+; 0.2 µM, 24 h): 0.1%
COc1ccccc1-c1ccncc1C(=O)Nc1nnc(OCc2ccc(Cl)cc2)s1 — colony survival (DLD-1 BRCA2-/-; 0.5 µM, single replicate; relative to: untreated): 62.9% and 57.7% and 41.4%
CC(C)(C)C(=O)OCOP(=O)(OCOC(=O)C(C)(C)C)C1CCCN(O)C1=O (stereo not shown) — log GI50 (Malme-3M): -6.37 log M
CC(=O)Oc1ccccc1C(=O)[Se]CC(=O)Nc1cccc(C(F)(F)F)c1 — CC50 (NCI60 CNS subpanel; NCI60 five-dose screen): 57.3 µM
CSCC[C@H](N)C(=O)N[C@@H](C)C(=O)N[C@@H](Cc1c[nH]c2ccccc12)C(=O)N[C@@H](Cc1c[nH]cn1)C(=O)N[C@@H](CC(=O)O)C(=O)N[C@@H](CC(=O)O)C(=O)N[C@@H](CCC(=O)O)C(=O)N[C@@H](CCC(=O)O)C(=O)N[C@@H](Cc1ccccc1)C(=O)N[C@@H](C)C(=O)N[C@@H](CCCNC(=N)N)C(=O)N[C@@H](CCCNC(=N)N)C(=O)N[C@@H](CCCNC(=N)N)C(=O)N[C@@H](CCCNC(=N)N)C(=O)NCCCCCC(=O)NCCCCC(NC(=O)CCCCCNC(=O)[C@H](CCCNC(=N)N)NC(=O)[C@H](CCCNC(=N)N)NC(=O)[C@H](CCCNC(=N)N)NC(=O)[C@H](CCCNC(=N)N)NC(=O)[C@H](C)NC(=O)[C@H](Cc1ccccc1)NC(=O)[C@H](CCC(=O)O)NC(=O)[C@H](CCC(=O)O)NC(=O)[C@H](CC(=O)O)NC(=O)[C@H](CC(=O)O)NC(=O)[C@H](Cc1c[nH]cn1)NC(=O)[C@H](Cc1c[nH]c2ccccc12)NC(=O)[C@H](C)NC(=O)[C@@H](N)CCSC)C(=O)NCCCCC(NC(=O)C(CCCCNC(=O)CCCCCNC(=O)[C@H](CCCNC(=N)N)NC(=O)[C@H](CCCNC(=N)N)NC(=O)[C@H](CCCNC(=N)N)NC(=O)[C@H](CCCNC(=N)N)NC(=O)[C@H](C)NC(=O)[C@H](Cc1ccccc1)NC(=O)[C@H](CCC(=O)O)NC(=O)[C@H](CCC(=O)O)NC(=O)[C@H](CC(=O)O)NC(=O)[C@H](CC(=O)O)NC(=O)[C@H](Cc1c[nH]cn1)NC(=O)[C@H](Cc1c[nH]c2ccccc12)NC(=O)[C@H](C)NC(=O)[C@@H](N)CCSC)NC(=O)CCCCCNC(=O)[C@H](CCCNC(=N)N)NC(=O)[C@H](CCCNC(=N)N)NC(=O)[C@H](CCCNC(=N)N)NC(=O)[C@H](CCCNC(=N)N)NC(=O)[C@H](C)NC(=O)[C@H](Cc1ccccc1)NC(=O)[C@H](CCC(=O)O)NC(=O)[C@H](CCC(=O)O)NC(=O)[C@H](CC(=O)O)NC(=O)[C@H](CC(=O)O)NC(=O)[C@H](Cc1c[nH]cn1)NC(=O)[C@H](Cc1c[nH]c2ccccc12)NC(=O)[C@H](C)NC(=O)[C@@H](N)CCSC)C(N)=O (stereo partly shown) — osteoclastogenesis (mouse bone marrow macrophages; concentration not given, mean, together with: RANKL without NaSal; relative to: RANKL alone): 49.3%
CC(=O)NCSC[C@H](NC(=O)[C@@H]1CCCN1C(=O)[C@H](C)NC(=O)[C@@H](NC(=O)CNC(=O)[C@@H](NC(=O)[C@H](Cc1c[nH]c2ccccc12)NC(=O)[C@H](C)NC(=O)CNC(=O)[C@H](CO)NC(=O)[C@H](C)NC(=O)[C@@H]1CCCN1C(=O)[C@H](Cc1c[nH]c2ccccc12)NC(=O)[C@H](C)NC(=O)[C@H](C)NC(=O)[C@@H](N)Cc1ccc(O)cc1)[C@@H](C)O)[C@@H](C)O)C(=O)N[C@@H](CO)C(=O)N[C@@H](C)C(=O)NCC(=O)N[C@H](C(=O)NCCOCCOCCOCCOCCOCCOCCOCCOCCOCCOCCOCCOCCC(=O)N[C@@H](CS)C(N)=O)[C@@H](C)O — selectivity ratio (HCC827; phage binding; relative to: targeting over control phage): 2.2 ± 1.4
COc1ccccc1-c1n[nH]c2nc(NC3CCN(C(=O)Cc4ccc(F)cc4F)CC3)ncc12 — relative abundance (bead binding, competition bead pull-down, item: LINJ.33.2520; Leishmania donovani axenic amastigote extract; 10 µM; relative to: vehicle): 1.01
CSCC[C@H](NC(=O)[C@@H](NC(=O)[C@H](CCC(N)=O)NC(=O)[C@H](CO)NC(=O)[C@@H](N)C(C)C)[C@@H](C)O)C(=O)N[C@@H](CCCNC(=N)N)C(=O)N[C@@H](CCC(N)=O)C(=O)N[C@H](C(=O)N[C@@H](C)C(=O)N[C@H](C(=O)N1CCC[C@H]1C(=O)N[C@@H](CC(C)C)C(=O)N[C@@H](CC(C)C)C(=O)N[C@@H](Cc1c[nH]c2ccccc12)C(=O)N[C@@H](Cc1ccccc1)C(=O)N[C@@H](Cc1c[nH]c2ccccc12)C(=O)N[C@H](C(=O)NCC(=O)N[C@@H](CO)C(=O)N[C@@H](CC(C)C)C(=O)NCCOCCOCCOCCOCCOCCOCCOCCOCCOCCOCCOCCOCCC(=O)N[C@@H](CS)C(N)=O)[C@@H](C)O)C(C)C)[C@@H](C)O — selectivity ratio (H1437 lung adenocarcinoma; cell binding, phage binding, item: output/input phage; 10 min, 37 °C; relative to: control phage): 1.8 ± 1.2
O=C(O)c1ccc(-c2nc(-c3ccccc3Cl)c3sccn23)cc1 — CD235a fluorescence intensity (K562; erythroid differentiation, flow cytometry; 0.1 mM, 24 h; relative to: untreated): 0.99 fold change and 0.85 fold change and 1.53 fold change
O=c1cc(-c2ccc(O)cc2)oc2cc(O)cc(O)c12 — EC50 (SH-SY5Y Aβ-GFP cells; ROS reduction, CellROX): 6.8 µM
CC(C)C[C@H](NC(=O)[C@H](CC(=O)O)NC(=O)CNC(=O)[C@@H](N)CCCNC(=N)N)C(=O)N[C@@H](C)C(=O)N[C@H](C(=O)N[C@@H](CC(C)C)C(=O)N[C@@H](CCCNC(=N)N)C(=O)N[C@@H](CCC(N)=O)C(=O)N[C@@H](CC(C)C)C(=O)N[C@@H](C)C(=O)N[C@@H](CCC(N)=O)C(=O)N[C@@H](CCC(=O)O)C(=O)N[C@@H](CC(=O)O)C(=O)NCC(=O)N[C@H](C(=O)N[C@H](C(=O)NCC(=O)N[C@H](C(=O)N[C@@H](CCCNC(=N)N)C(=O)NCCOCCOCCOCCOCCOCCOCCOCCOCCOCCOCCOCCOCCC(=O)N[C@@H](CS)C(N)=O)C(C)C)C(C)C)C(C)C)[C@@H](C)O — selectivity ratio (H1975 lung adenocarcinoma; cell binding, phage binding, item: output/input phage; 10 min, 37 °C; relative to: control phage): 120 ± 17
O=C(C[Se]C(=O)c1ccccc1Nc1cccc(C(F)(F)F)c1)Nc1cccc(C(F)(F)F)c1 — CC50 (NCI60 colon subpanel; NCI60 five-dose screen): 23.4 µM
Cc1cc(Oc2nc(N3CC[C@@H](c4ccncc4)C3)ncc2F)[nH]n1 — IC50 (ASPC1; cell proliferation; pancreas cancer): 43.7 µM

Excerpt of the above:
NC(=S)N/N=C/c1ccc(OCc2cccc(F)c2)cc1 — glutathione peroxidase activity (OD450) (IMR-32; item: GPX3; 300 µg/mL, 24 h; higher = more activity): 0.245 a.u.
O=C(C[Se]C(=O)c1ccccc1)Nc1cccc(C(F)(F)F)c1 — mean growth percent (NCI60 CNS subpanel; cell growth; 10 µM, 48 h, one-dose): -83.5%
